{"data": "Published values gathered from unrelated publications", "note": "Protocols differ between the studies behind these lines. Several values in a cell are separate wells, animals, samples, runs or records."}
{"Structure (SMILES)": "COc1cnc2cccc(N3CCc4c(cc(Cn5ccnc5C)cc4-c4cn(C)nc4C(F)(F)F)C3=O)c2c1", "target or system": "JHUEM7", "test": "cell growth", "conditions": "120 h", "endpoint": "EC50", "value": "6.63 µM"}
{"Structure (SMILES)": "Clc1ccc(-c2c(-c3ccccn3)nc3n2CCC3)cc1", "target or system": "Leishmania infantum", "system": "macrophages, MHOM/MA(BE)/67/ITMAP263, amastigote", "endpoint": "IC50", "value": "1.81 µM and 1.26 µM"}
{"Structure (SMILES)": "CCn1cc(-c2cc(Cn3ccoc3=N)cc3c2CCN([C@@H](C)c2cc(OC)ccn2)C3=O)c(C(F)(F)F)n1", "target or system": "COR-L105", "test": "cell growth, inhibitor", "conditions": "120 h", "endpoint": "EC50", "value": "0.0367 µM"}
{"Structure (SMILES)": "CC(C)n1ncc2c(C(=O)NCC3(C)CNC3)cc(C3CC3)nc21", "target or system": "coxsackievirus A6", "test": "CPE", "system": "RD", "conditions": "5 µM", "endpoint": "cell protection", "value": "103% and 99.8%"}
{"Structure (SMILES)": "CN1CCOC(c2ccccc2)c2ccccc2C1 (stereo not drawn)", "target or system": "THP-1", "test": "pyroptotic LDH release", "conditions": "2 µM, 40 min, with: LPS then nigericin", "endpoint": "inhibition", "value": "27.4%"}
{"Structure (SMILES)": "Cn1cc(-c2ccc(-c3cncc(Cl)c3N3CCC4(CCNC4=O)CC3)cc2)cn1", "target or system": "COLO 205", "test": "gene expression, microarray, refers to: BACE1 mRNA", "conditions": "concentration not given, 6 h", "how to read": "baseline: untreated cells", "endpoint": "log2 fold change", "value": 3.88}
{"Structure (SMILES)": "CN(c1ccc(F)cc1)c1c(-c2cccc(F)n2)nc2ccccn12", "target or system": "Leishmania infantum", "system": "MHOM/MA(BE)/67/ITMAP263", "conditions": "120 h", "how to read": "baseline: CC50 macrophages over EC50 amastigotes", "endpoint": "selectivity index", "value": 6.3}
{"Structure (SMILES)": "CC(=O)O[C@@H]1C[C@H](O)[C@@]23CO[C@@H](O)[C@]1(C)[C@@H]2C[C@@H](O)[C@]1(C)[C@@H]3C(=O)[C@H](OC(C)=O)[C@@]2(C)[C@H](c3ccoc3)C[C@H]3O[C@]321", "target or system": "THP-1", "test": "pyroptotic LDH release", "conditions": "2 µM, 40 min, with: LPS then nigericin", "endpoint": "inhibition", "value": "3.46%"}
{"Structure (SMILES)": "Fc1ccc(Nc2c(-c3ccc(F)cn3)nc3ccccn23)cc1", "target or system": "Leishmania infantum", "system": "macrophages, MHOM/MA(BE)/67/ITMAP263, amastigote", "endpoint": "IC50", "value": "24.5 µM and 5.66 µM"}
{"Structure (SMILES)": "Cc1cccc(C(=O)O)c1O", "target or system": "THP-1", "test": "pyroptotic LDH release", "conditions": "2 µM, 40 min, with: LPS then nigericin", "endpoint": "inhibition", "value": "52.6%"}
{"Structure (SMILES)": "Cc1ccn2cc(-c3ccccn3)nc2c1", "target or system": "Leishmania infantum", "system": "MHOM/MA(BE)/67/ITMAP263", "conditions": "120 h", "how to read": "baseline: CC50 macrophages over EC50 amastigotes", "endpoint": "selectivity index", "value": 3.2}
{"Structure (SMILES)": "Cc1ccc(C(=O)Nc2ccc(Oc3cc4cnn(C)c4cc3-c3cn[nH]c3)c(F)c2)c(=O)n1-c1ccc(F)cc1", "target or system": "THP-1", "test": "pyroptotic LDH release", "conditions": "2 µM, 40 min, with: LPS then nigericin", "endpoint": "inhibition", "value": "26.9%"}
{"note": "Repeated from above:"}
{"Structure (SMILES)": "CN1CCOC(c2ccccc2)c2ccccc2C1 (stereo not drawn)", "target or system": "THP-1", "test": "pyroptotic LDH release", "conditions": "2 µM, 40 min, with: LPS then nigericin", "endpoint": "inhibition", "value": "27.4%"}
